Assay results from different studies.
A part holds a random share of what one study measured.

Study 1 — method: universal PBM; form: double-stranded DNA, one strand shown; sample: in vitro; tested at: 600 nM; direction: higher = stronger binding
Target: Sal-like protein 4, full length isoform A (SALL4, Homo sapiens, UniProt Q9UJQ4, residues 1-1053)
Sequence of UniProt Q9UJQ4 (whole entry, looked up): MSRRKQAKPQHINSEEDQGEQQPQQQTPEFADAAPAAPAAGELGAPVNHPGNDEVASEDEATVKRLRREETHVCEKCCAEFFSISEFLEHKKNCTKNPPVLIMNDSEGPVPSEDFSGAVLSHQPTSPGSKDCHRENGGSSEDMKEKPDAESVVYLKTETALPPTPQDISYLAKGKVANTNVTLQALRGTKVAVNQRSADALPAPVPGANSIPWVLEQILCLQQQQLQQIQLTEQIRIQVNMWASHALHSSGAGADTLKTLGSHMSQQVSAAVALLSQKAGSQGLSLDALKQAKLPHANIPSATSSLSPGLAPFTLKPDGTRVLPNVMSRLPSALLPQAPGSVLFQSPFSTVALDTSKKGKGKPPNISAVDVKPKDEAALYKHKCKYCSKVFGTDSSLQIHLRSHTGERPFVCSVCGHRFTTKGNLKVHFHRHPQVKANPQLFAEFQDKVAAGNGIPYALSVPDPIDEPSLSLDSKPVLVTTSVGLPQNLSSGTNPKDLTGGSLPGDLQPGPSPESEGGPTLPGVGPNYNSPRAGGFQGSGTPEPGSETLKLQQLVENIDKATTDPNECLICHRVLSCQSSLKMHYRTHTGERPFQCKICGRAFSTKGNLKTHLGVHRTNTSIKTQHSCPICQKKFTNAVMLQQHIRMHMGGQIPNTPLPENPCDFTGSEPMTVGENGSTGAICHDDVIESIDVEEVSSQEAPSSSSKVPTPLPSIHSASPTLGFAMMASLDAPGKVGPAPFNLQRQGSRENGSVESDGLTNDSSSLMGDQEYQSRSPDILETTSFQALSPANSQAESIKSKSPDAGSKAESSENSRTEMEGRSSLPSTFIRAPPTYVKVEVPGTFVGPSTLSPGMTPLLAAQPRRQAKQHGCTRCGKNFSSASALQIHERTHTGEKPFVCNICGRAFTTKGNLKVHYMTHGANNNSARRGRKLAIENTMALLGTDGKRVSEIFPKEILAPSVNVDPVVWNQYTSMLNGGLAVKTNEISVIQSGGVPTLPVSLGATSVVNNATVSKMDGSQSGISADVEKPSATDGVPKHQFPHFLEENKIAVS
Notes: 8-mer, flanks averaged, mean of replicates
Sequence	E-score
ATTCACAC	0.195
CGAGATAC	0.136
AGGTGTGC	-0.137
GAGGACAC	-0.2
AAATCAGA	0.134
GATGAGCC	-0.28
ACCCAGTC	-0.192
AATGTGTG	0.132
GGTGCAAA	0.00387
AACCGGAG	-0.207
ACCTCCAT	-0.0927

Study 2 — method: protein binding microarray; form: double-stranded DNA, one strand shown; sample: in vitro; tested at: not given; relative to: not given; direction: higher = stronger binding
Target: Histone acetyltransferase KAT6A, both winged helices, GST fusion (KAT6A, Homo sapiens, UniProt Q92794, residues 1-181)
Notes: 8-mer, flanks averaged, mean of 2 arrays, mostly near background
Construct (chain): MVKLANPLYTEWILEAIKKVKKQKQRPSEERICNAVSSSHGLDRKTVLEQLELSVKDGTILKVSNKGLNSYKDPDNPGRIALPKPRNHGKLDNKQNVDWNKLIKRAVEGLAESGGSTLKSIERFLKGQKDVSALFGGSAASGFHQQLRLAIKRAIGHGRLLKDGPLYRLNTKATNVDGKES
Sequence	E-score
GAAACACC	-0.00878
CGGCGGAC	0.275
CCCGTGGC	0.241
CCAGCCGA	0.158
ATAGTTAG	-0.131
TTACCGAA	0.00068
AGTTTCAG	0.0323
ATGTAATA	0.0437
AACAACGC	0.0974
CGCGGTCC	0.366
AGTTCCAA	-0.0862
AGCATGAG	-0.127
ACTCGTAA	0.0454
CCATCGCG	0.263
AACGAACC	0.00814
CTCGAATC	-0.218
CATCTCAC	-0.0215
GCATTGCC	0.0351
GCACATCA	0.0538
CAATGTGA	-0.0282
GTGATATA	0.0172
ATAAAGAC	-0.094
TACAGGCA	-0.143
ACGGCTAT	0.227
CACCAACA	-0.101

Study 3 — method: protein-binding microarray; form: double-stranded DNA, one strand shown; sample: in vitro; tested at: 940 nM top; notes: 60-bp whole probe; added: salmon DNA 0.4 mg/ml; relative to: random background probes; direction: higher = stronger binding; constant ends, left off below: GCCTAGCAC … GTCTTGATTCGCTTGACGCTGCTG
Target: Interferon regulatory factor 5, full length, phosphomimetic (IRF5, Homo sapiens, UniProt Q13568-2, residues 1-514, S451D/S453D/S456D/S462D)
Sequence	fitted relative affinity [z-score]
CTCCTAATAAATATGAGACTGTGCTAG	0.281
TTAGATTTCGGGAATCGATTAGTGCTA	0.727
TTAGATTTCGGGTATCGAATAGTGCTA	1.66
TTAGGACTGGGTTTCGGTTTGTGCTAG	6.44
GACGAACTGAGACTTGAGACGTGCTAG	-0.415
GACGAACTGTGACTGGAGACGTGCTAG	-0.443
GACGATATCAGAGTGGAGACGTGCTAG	-0.536
TCAGCTTCCTAATTCTCACTGTGCTAG	0.791
TTAGATCTCAGGATCGATTAGTGCTAG	0.182
GACGATATCGGGACTTGAGACGTGCTA	-0.297
GATGGTCTCCTTTTCCTGACGTGCTAG	0.831
GACGGACTGGGGACAGGGGACGTGCTA	0.129
ATGTCTTCCCCTCTCATTCCGTGCTAG	0.902
ACAGGTTCTCTTTTATTTTTGTGCTAG	1.68
TTAGGTTTCCTTATCCTATAGTGCTAG	1.81
GACGATACCAGACTGGAGACGTGCTAG	1.15
GACGGTATCAGGTATCGGGACGTGCTA	2.12
TCAGGTGTTCTTTTCTGACTGTGCTAG	0.67
TTAGGTATCGGGTAGCGGTTAGTGCTA	6.46
TCATTTTTCCCCTGCACACTGTGCTAG	1.51
TTAGGTCTCGGTATCGGGTAGTGCTAG	5.53
TTAGAACTGAGTATCGATTAGTGCTAG	4.49
TTAGGTATCGGTACTGGGTTAGTGCTA	8.78

Study 4 — method: aptamer microarray, sandwich; form: DNA with 2'F-ANA; sample: in vitro; tested at: 200 nM; added: Cy3 exosite-II aptamer, 400 nM; direction: higher = stronger binding; sequence: GGTTGGTGTGGTTGG
Target: Prothrombin, mature alpha-thrombin (F2, Homo sapiens, UniProt P00734)
Notes: whole 15-mer aptamer, many near background
Modification	mean fluorescence intensity
2'F-ANA at 1 2 6 9 12 13 14	58.5 a.u.
2'F-ANA at 2 3 4 6 7 9 10 11 15	193 a.u.
2'F-ANA at 1 2 3 4 8 11 12 14 15	80 a.u.
2'F-ANA at 5 7 11 12 14 15	47.4 a.u.
2'F-ANA at 3 6 7 9 10 11 12 13 14	315 a.u.
2'F-ANA at 2 7 11 12	720 a.u.
2'F-ANA at 2 7 8 10 11	132 a.u.
2'F-ANA at 1 2 3 9 10 11 12 13	78.9 a.u.
2'F-ANA at 1 3 4 7 11 12 13 14 15	77.9 a.u.
2'F-ANA at 1 6 7 9 11	186 a.u.
2'F-ANA at 1 3 4 9 12 15	412 a.u.
2'F-ANA at 3 4 5 8 10 13 15	51.2 a.u.
2'F-ANA at 1 3 4 5 6 7 9 10 11 12 14 15	54.3 a.u.
2'F-ANA at 1 2 5 7 9 11 12 13 15	64 a.u.
2'F-ANA at 2 4 7 9 12 13	415 a.u.
2'F-ANA at 1 4 5 7 8 10 11 12 13 14 15	47.1 a.u.

Study 5 — target: UBE2G1 UBC core domain (UniProt P62253); method: yeast two-hybrid; sample: yeast; notes: mostly zero background; relative to: not given; direction: higher = stronger interaction
B1: PEX2 RING domain (UniProt P28328); chain DNTLATSGKECALCGEWPTMPHTIGCEHIFCYFCAKSSFLFDVYFTCPKCGTEVHSLQPLK
B2: PHF7 RING domain (UniProt Q9BWX1); chain IQHGHVGEESCILCCEDLSQQSVENIQSPCCSQAIYHRKCIQKYAHTSAKHFFKCPQCNNRKEFPQEML
B3: RNF14 RING domain (UniProt Q9UBS8); chain IKCFNSKLFLCSICFCEKLGSECMYFLECRHVYCKACLKDYFEIQIRDGQVQCLNCPEPKCPSVATPGQVK
B4: MSL2 RING domain (UniProt Q9HCI7); chain LLPYFRQSLSCCVCGHLLQDPIAPTNSTCQHYVCKTCKGKKMMMKPSCSWCKDYEQFEENKQ
B5: TRIM35 RING domain (UniProt Q9UPQ4); chain PSRSFKEELLCAVCYDPFRDAVTLRCGHNFCRGCVSRCWEVQVSPTCPVCKDRASPADLRT
B6: RNF150 RING domain (UniProt Q9ULK6); chain DKETESDFDNCAVCIEGYKPNDVVRILPCRHLFHKSCVDPWLLDHRTCPMCKMNILKALGIP
Target sequence (chain): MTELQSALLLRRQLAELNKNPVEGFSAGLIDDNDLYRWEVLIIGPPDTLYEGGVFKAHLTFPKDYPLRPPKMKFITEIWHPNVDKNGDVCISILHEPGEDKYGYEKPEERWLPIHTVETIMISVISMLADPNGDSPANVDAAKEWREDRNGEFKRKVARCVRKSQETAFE
Molecule	lacZ reporter activity
QLQDEEDDSLCRICMDAVIDCVLLECGHMVTCTKCGKRMSECPICRQYVVRAVHVF (RNF34 RING domain (UniProt Q969K3))	0
B1 (PEX2 RING domain)	0
B2 (PHF7 RING domain)	0
FLKKLEQSFMCVCCQELVYQPVTTECFHNVCKDCLQRSFKAQVFSCPACRHDLGQNYIMI (UHRF2 RING domain (UniProt Q96PU4))	0
B3 (RNF14 RING domain)	0
KRQCSDVDDICSICQAEFQKPILLICQHIFCEECMTLWFNREKTCPLCRTVISDHINKW (RNFT1 RING domain (UniProt Q5M7Z0))	0
B4 (MSL2 RING domain)	0
B5 (TRIM35 RING domain)	0
KIKDLNEHIVCCLCAGYFVDATTITECLHTFCKSCIVKYLQTSKYCPMCNIKIHETQPLL (PCGF1 RING domain (UniProt Q9BSM1))	0
B6 (RNF150 RING domain)	0
ISNDSETLEECMVCSDMKRDTLFGPCGHIATCSLCSPRVKKCLICKEQVQSRTKIE (MIB1 RING domain (UniProt Q86YT6))	0

Study 6 — method: RNA Bind-n-Seq; form: RNA; sample: in vitro; tested at: 365 nM; relative to: no-protein control; direction: higher = stronger binding
Target: RNA binding protein fox-1 homolog 2, RRM domain, GST-SBP tag (RBFOX2, Homo sapiens, UniProt O43251-10, residues 100-194)
Notes: natural RNA segment, single round, ends assumed
Constant ends, left off below: GGGAGUUCUACAGUCCGACGAUC … UGGAAUUCUCGGGUGCCAA
Residues (chain): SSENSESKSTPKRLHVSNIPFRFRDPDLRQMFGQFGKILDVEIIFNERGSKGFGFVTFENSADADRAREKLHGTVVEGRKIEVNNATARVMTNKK
Sequence	RBNS enrichment (R)
GUUCUGCUGCCCCUGAUGCUCAUGGGUCUGUCCCGGGGAAAGAGGCAAGCAGGAGGCUGAGCCAGGAGCGAGGGGUAGAAAGUGGUGGUGUGGAACAGGCUUCUGUUUGU	0.913
UUAGUAAUAGAAAUCCAGUAUAUAAUGUAUCAAAUACAAUUGAGGUUCUAACCUAGUGUGUUAAUUUAUCUGAAUUUGGAUUUUUAAAAAGUAAUAAAAAGUUAAAUGUA	0.482
AUUGCUUUAUUCACACUUUUAUUGUGGCUGAAUUUUUGUGCCUAUCUAUAAAACACACUUUCAAAUUAUUUGAAUUACCAAGACGUCUGCUUUUGUGACAGUCAGAAAAC	0.402
GUGGUGUGUUUGCCUGGAAGUCCCUCGCCCACAGUGUGUGUUCACACCGACUCCACCUCAGAGCAUGGUGCCUCCGUUUUCCCUUCCUAGUGACCCCAGGUUUAGCAUCG	1.16
UGUGGCCAUAUGAACUGACUAGAUGGCUAAUAUGGACACUUUGGGUAUUUCUAAUGCCUGUUCAGGGCUGGUUUUCUGCAUGCACGGGUAUACACAUAAUGCAGUGCCAU	1.97
GUGUAUUUAAUCUGUAUUAUUCUCUAUUACCCUUGGAACUUUCUUCCCCGUGGGCCUGGGUUACUUUACAUUGAAUAAACACUGUUUGACCCAGUGUUCUGACUUGUACC	0.428
UUAAAUUAUUUUAUAGUGCCUGAUAUUUUUAAUAUUAUAAGUUGGAUUCAAAGGGUAUACAGCAUUUUGUUUUCUAGUACCAUUGCUUCACUGGGAGCUCAAAAUUUGCC	6.93
CGUGCUCUUCACACUCUCUGAGGCCUCAGUCCAUGUCCUAUAUCAGUUUCUCUUUUGUGUGCUUUACCAAGUGGCCGGUGACUACAGGCCACCCCGAUUCUCACCACAAA	0.291

Excerpt of the above (study 2):
Sequence	E-score
TTACCGAA	0.00068
AGTTTCAG	0.0323
ATGTAATA	0.0437
AACAACGC	0.0974
CGCGGTCC	0.366
AGTTCCAA	-0.0862
AGCATGAG	-0.127
ACTCGTAA	0.0454
CCATCGCG	0.263
AACGAACC	0.00814
CTCGAATC	-0.218
CATCTCAC	-0.0215
GCATTGCC	0.0351
GCACATCA	0.0538
CAATGTGA	-0.0282
